Experimental data pooled from the literature.
Numbered parts are unrelated; each lists some results of a single study. Substitutions count along the parent as printed.

Study 1
Target: Histone acetyltransferase KAT6A, winged helix 1, GST fusion (KAT6A, Homo sapiens, UniProt Q92794, residues 1-85)
Technique: protein binding microarray
Molecule type: double-stranded DNA, one strand shown
Matrix: in vitro
Tested at: not given
Notes: 8-mer, flanks averaged, mean of 2 arrays, mostly near background
Relative to: not given
Direction: higher = stronger binding
Residues (chain): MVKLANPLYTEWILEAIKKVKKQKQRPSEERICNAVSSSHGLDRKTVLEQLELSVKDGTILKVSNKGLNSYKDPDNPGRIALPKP
| Sequence | E-score |
| --- | --- |
| AACGAGGC | -0.111 |
| GTACGCCA | 0.0955 |
| CGGGTCAA | 0.184 |
| GGTGAAAA | -0.0577 |
| ACACTACG | 0.107 |
| AATTATTC | -0.0491 |

Study 2
Target: CCND3, cyclin fold, Cln2 fusion (human)
Technique: yeast growth competition, sequencing
Matrix: yeast
Notes: weak parent motif
Relative to: not given
Direction: higher = stronger binding
Starting sequence: PKN2 docking peptide (human); VSAVQKLDFSDTM; partner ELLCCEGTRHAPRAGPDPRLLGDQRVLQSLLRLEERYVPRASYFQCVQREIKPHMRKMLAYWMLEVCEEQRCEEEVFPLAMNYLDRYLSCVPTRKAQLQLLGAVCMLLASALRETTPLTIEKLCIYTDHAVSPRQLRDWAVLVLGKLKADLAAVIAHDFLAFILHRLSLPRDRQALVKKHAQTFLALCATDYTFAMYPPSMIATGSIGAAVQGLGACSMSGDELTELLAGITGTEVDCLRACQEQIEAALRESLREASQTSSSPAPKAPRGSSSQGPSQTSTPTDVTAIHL
| Change | normalised enrichment score |
| --- | --- |
| VSAVQKLDFFDTM [S10F] | 0.0429 |
| VSAVQKLDFSDTR [M13R] | 0.12 |
| VSAVQKLDFSKTM [D11K] | 0.0446 |
| VSAVQKLDFSDTN [M13N] | 0.122 |
| VSAVQKLDFSDTL [M13L] | 0.0987 |
| VDAVQKLDFSDTM [S2D] | 0.0364 |

Study 3
Target: Sal-like protein 4, full length isoform A (SALL4, Homo sapiens, UniProt Q9UJQ4, residues 1-1053)
Sequence of UniProt Q9UJQ4 (whole entry, looked up): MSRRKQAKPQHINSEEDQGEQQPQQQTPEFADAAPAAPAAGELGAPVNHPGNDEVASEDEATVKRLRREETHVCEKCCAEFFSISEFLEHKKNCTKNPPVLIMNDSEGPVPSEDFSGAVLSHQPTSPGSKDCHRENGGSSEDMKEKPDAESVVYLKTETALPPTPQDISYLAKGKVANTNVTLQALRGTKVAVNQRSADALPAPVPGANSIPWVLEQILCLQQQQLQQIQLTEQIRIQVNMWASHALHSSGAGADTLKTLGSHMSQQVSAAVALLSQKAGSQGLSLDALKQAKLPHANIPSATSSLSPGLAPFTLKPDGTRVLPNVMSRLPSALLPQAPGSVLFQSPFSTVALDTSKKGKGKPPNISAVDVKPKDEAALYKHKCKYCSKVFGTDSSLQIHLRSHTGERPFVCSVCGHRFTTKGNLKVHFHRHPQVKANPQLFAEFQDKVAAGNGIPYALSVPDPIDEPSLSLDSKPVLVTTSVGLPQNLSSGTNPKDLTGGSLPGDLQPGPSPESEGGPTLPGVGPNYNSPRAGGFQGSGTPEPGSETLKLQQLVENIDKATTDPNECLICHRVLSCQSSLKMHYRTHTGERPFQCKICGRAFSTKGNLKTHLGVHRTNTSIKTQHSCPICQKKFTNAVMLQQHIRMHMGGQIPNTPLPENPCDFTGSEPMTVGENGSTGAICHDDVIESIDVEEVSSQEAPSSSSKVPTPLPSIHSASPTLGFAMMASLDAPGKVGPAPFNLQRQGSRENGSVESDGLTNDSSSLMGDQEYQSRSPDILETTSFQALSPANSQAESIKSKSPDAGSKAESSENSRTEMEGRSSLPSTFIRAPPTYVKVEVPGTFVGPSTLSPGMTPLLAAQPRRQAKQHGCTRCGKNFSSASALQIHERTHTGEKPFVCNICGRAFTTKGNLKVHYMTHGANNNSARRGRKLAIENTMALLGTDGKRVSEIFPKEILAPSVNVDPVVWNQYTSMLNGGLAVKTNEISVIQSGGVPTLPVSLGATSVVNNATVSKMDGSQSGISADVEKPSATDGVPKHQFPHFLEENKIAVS
Technique: universal PBM
Molecule type: double-stranded DNA, one strand shown
Matrix: in vitro
Tested at: 600 nM
Notes: 8-mer, flanks averaged, mean of replicates
Direction: higher = stronger binding
| Sequence | E-score |
| --- | --- |
| AGCCCAAG | -0.245 |
| AAGACAAG | 0.0366 |
| AGAGGCCT | -0.207 |
| GGTTTGAA | 0.0903 |
| AGGTGACC | -0.209 |
| ACGGCAAA | -0.012 |
| AGTGCCTG | -0.056 |

Other studies, line by line
| Molecule | target | assay | system | conditions | how to read | quantity | result |
| --- | --- | --- | --- | --- | --- | --- | --- |
| PhoQ, residues 284 288 289 292 302 303 AQGLTV | PhoP, residues 12 14 15 18 19 LWHVM (Escherichia coli, UniProt P23836) | Sort-seq, item: YFP reporter | E. coli | PhoQ-PhoP variant library, with: 10 µM Mg2+ | relative to: high Mg2+ state, higher = stronger signaling | fold induction | 18.1 |

Some of these lines once more (study 1):
| Sequence | E-score |
| --- | --- |
| CGGGTCAA | 0.184 |
| GGTGAAAA | -0.0577 |
| ACACTACG | 0.107 |
